Measured values of several laboratories.
Numbered parts are unrelated; each lists some results of a single study. Positions count from the first letter of the parent shown.

Sample 1 — technique: DHFR PCA, deep sequencing; sample: yeast; together with: (+)-ABA 200 µM; relative to: wild-type fitted maximum; direction: higher = stronger binding
Target: ABI1, truncated, D143A, DHFR fusion (Arabidopsis thaliana)
Setting: methotrexate growth selection, single substitutions
Starting sequence: PYL1, truncated, DHFR fusion (Arabidopsis thaliana); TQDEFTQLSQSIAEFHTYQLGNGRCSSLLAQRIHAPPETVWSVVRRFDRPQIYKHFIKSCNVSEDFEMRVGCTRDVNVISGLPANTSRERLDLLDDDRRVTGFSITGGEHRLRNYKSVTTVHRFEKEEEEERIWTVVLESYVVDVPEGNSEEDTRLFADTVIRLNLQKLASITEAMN
Substitution	relative binding score [%]
R24C	96.7
D96C	69
R45P	-12.4
D159E	93.9
S87L	7.4
K168E	78.5
S171H	95.3
P146Y	20.2
V137W	-2.92
G23W	78.9
S63H	102
L91Q	17.3
R111V	19.7
E129P	107

Sample 2 — technique: RNA Bind-n-Seq; molecule type: RNA; sample: in vitro; concentration: 365 nM; relative to: no-protein control; direction: higher = stronger binding
Target: RNA binding protein fox-1 homolog 2, RRM domain, GST-SBP tag (RBFOX2, Homo sapiens, UniProt O43251-10, residues 100-194)
Setting: natural RNA segment, single round, ends assumed
Target sequence (chain): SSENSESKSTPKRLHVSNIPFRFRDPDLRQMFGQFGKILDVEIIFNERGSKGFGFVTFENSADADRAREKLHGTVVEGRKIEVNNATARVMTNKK
Sequence	RBNS enrichment (R)
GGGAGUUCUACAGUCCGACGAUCUCUGACGUCCACCUCCUACCCCAUAGGAGUUAGAAGUUAGGGUUUAGGCAUCAUUUUGAGAAUGCUGACACUUUUUCAGGGCUGUGAUUGAGUGAGGGCAUGGGUAAAAAUGGAAUUCUCGGGUGCCAA	0.581
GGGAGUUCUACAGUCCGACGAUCUAUAGUUACAGAACCAUUGUGAAUUUCAAAGCUAGCAACCUACACGGUGCACCAGGUUGACUUGAAUAAAUUUGGCAACCAGGUUUGCAAGCGUGCAGAAACUAACUCCUUGGAAUUCUCGGGUGCCAA	0.328
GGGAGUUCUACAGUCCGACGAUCUUUUCCUCCUUUGUGUUAGGGGACAUAACAAGCUCUGCUGGGCUUGAGGGACCCAGACCAGGUGUCUGCAGUCAGCUCCUGAGACACAGCUGGCCGGCACAACAGGUGUUUGGAAUUCUCGGGUGCCAA	0.509
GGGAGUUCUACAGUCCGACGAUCCCCCUGCCUUCUCAGCCACAUGCUUUUGGCCUUAAACGCUCAGUCUUGUGGAGUUCAACUCUGUCAAACGAUUGGAAAGGGCAUCCAUUUCCAGAUCUUUGGCAUUUUCCUGGAAUUCUCGGGUGCCAA	0.955
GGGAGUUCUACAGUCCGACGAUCUCAAUUUUUUUUUAACAAUACAUUUUUGUGGUCAGUUCCAACAGCACUGUCCGUACUUUUAAAACUGGAAUGACCUCCUUCAGAUAUCGUGCCUCUUAGUGCCAAACCCAUGGAAUUCUCGGGUGCCAA	0.543
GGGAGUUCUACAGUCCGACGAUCAUUCUGACGCCUACUGGCUCUAUGUAAUUAUUAAGUCACAUUGACCUCUGUGUAGGGCUGUUUUCCAGGAAUUAGGAAGAAAACCCAAAGAAAAUAUUGCACAAAGGUUUUGGAAUUCUCGGGUGCCAA	0.524
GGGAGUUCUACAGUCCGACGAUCGAAAAAUCAGCAAAGAGUAUGGUUUUUAUCAAGAAUUUGUGUUGGGAGUAAAAACUGCUUUAUAGCUCCCAAAUUAGGAAGAGAAGAGCAGAAAUCCUCUGGGGCAUUUAUGGAAUUCUCGGGUGCCAA	0.716
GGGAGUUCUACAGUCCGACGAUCGUGACCACAGCUGGGCCCUGUUCCCUCUGGACCUCGGUCUCCUCAUCUGUGAGAUGCUGUGGCCCAGCUGACGAGCCCUAACGUCCCCAGAACCGAGUGCCUAUGAGGACUGGAAUUCUCGGGUGCCAA	0.436

Sample 3 — target: CCND1, cyclin fold, Cln2 fusion (human); technique: yeast growth competition, sequencing; sample: yeast; setting: weak parent motif; relative to: not given; direction: higher = stronger binding
Starting sequence: E2F3 docking peptide (human); PPAKRRLELGESG; partner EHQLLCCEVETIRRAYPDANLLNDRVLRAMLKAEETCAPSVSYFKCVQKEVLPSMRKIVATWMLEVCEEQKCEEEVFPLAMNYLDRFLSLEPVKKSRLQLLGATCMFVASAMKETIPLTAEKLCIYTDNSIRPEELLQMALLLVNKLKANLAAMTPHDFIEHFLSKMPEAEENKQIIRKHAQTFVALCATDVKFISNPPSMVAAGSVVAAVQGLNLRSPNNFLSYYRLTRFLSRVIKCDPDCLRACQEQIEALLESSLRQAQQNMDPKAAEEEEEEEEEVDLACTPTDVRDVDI
Substitution	normalised enrichment score
PPAKKRLEFGESG [R5K L9F]	0.573
PPAKRRLELGESA [G13A]	-0.314
PPAKRRLALGESG [E8A]	-0.114
PPAKRRAELGESG [L7A]	0.146
PPAKRRLELAESG [G10A]	0.457
PPAKARAELGESG [R5A L7A]	0.178
PPAKRRLEAGESG [L9A]	0.659
PPAKKRLELGESG [R5K]	-0.554
PPAKARLELGESG [R5A]	0.247

Sample 4 — technique: RNA Bind-n-Seq; molecule type: RNA; sample: in vitro; concentration: 200 nM; setting: whole 134-nt RNA, ends assumed; together with: 150 mM LiCl; relative to: input library; direction: higher = stronger binding; library: 7-deaza-guanosine replaces G
Target: Fragile X messenger ribonucleoprotein 1, C-terminal low-complexity region (Fmr1, Mus musculus, UniProt P35922)
Sequence	log2 enrichment
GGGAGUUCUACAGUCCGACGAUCACCAUGCAGGUGGGCAUCUUUGGGAAGUGGGGCAAGGGGGGAAAAGGGAGGGGGGUAACACUUUGGGAACAGGUGGUCCCAGGUCGUUUCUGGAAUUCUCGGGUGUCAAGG	1.19
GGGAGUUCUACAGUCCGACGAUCAGUCCUGUGCUACACAUCGUAUGUACCGAAUCGGGAAAAAGGGUUUGGGUUUUUGGGAAAGUAUUAUGUUACGCCGUUCGGAUCUGCACUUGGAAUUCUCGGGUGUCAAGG	-2.35
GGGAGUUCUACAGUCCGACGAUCCUCAAGUCCUGUGCUACACAUCGUAUGUACCGAAUCGGGGAAGGAAGGGGAAGGAAAGUAUUAUGUUACGCCGUUCGGAUCUGCACUUCCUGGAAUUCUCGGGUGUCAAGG	-0.862
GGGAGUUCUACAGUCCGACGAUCCCUGUGCUACACAUCGUAUGUACCGAAUCGGGUUUUUUUGGUUUUUUUGGUUUUUUUGGGGAAAGUAUUAUGUUACGCCGUUCGGAUCUGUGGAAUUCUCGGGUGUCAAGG	-0.865
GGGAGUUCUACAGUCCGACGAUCACCAUGCAGGUGGGCAUCUUUGGGAAGUGGGGCAAGGGGGGGAUAGGGAGGCGGGUAACACUUUGGGAACAGGUGGUCCCAGGUCGUUUCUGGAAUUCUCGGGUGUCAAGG	0.752
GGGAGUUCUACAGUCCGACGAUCAAGUCCUGUGCUACACAUCGUAUGUACCGAAUCGGAAAAAGGGAAAAAGGAAAAAGGAAAGUAUUAUGUUACGCCGUUCGGAUCUGCACUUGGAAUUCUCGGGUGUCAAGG	-0.865
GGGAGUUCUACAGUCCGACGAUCGCAGGAAGUAAAAACAAAUGGAAAUGCUUCGGAUAGAGGCAGGGGUGGGGGUUGCUAAGGAAAGGGUGGGAUGGGAGUGGGUAAAGAGUUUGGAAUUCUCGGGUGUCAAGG	1.61
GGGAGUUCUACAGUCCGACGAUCUAACUUUAGAAGAGGAUCUGAUGGAUAUGGCAGUGGACGUGGAUUUGGGGAUGGCUAUAAUGGGUAUGGAGGAGGACCUGGAGGUGGCAAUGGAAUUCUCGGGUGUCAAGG	0.232

Sample 5 — technique: protein binding microarray; molecule type: double-stranded DNA, one strand shown; sample: in vitro; concentration: not given; relative to: not given; direction: higher = stronger binding
Target: Histone acetyltransferase KAT6A, winged helix 1, GST fusion (KAT6A, Homo sapiens, UniProt Q92794, residues 1-85)
Setting: 8-mer, flanks averaged, mean of 2 arrays, mostly near background
Residues (chain): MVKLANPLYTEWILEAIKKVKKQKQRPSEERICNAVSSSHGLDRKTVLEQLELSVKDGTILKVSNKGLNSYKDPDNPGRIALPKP
Sequence	E-score
AAGATTCG	-0.137
CGGGACTC	0.247
GGGTTTAC	0.0894
ATTTGCTG	-0.126
AATGACAT	-0.118
CGGGTAGC	0.285
CGATATCC	-0.0461
GCGGGTTA	0.338
AAACGGGC	0.222
GAACGTGA	-0.0593
AGGTTAAG	-0.168
CGAATATC	-0.0772
TAGTTTCA	-0.0512
CGGTATGA	0.0575
TCATTTAA	-0.111
AATTCTTC	-0.0554

Other studies, line by line
Molecule	target	test	system	conditions	how to read	endpoint	result
PhoQ, residues 284 288 289 292 302 303 SSCLAV	PhoP, residues 12 14 15 18 19 NMSSL (Escherichia coli, UniProt P23836)	Sort-seq, measured: YFP reporter	E. coli	PhoQ-PhoP variant library, together with: 10 µM Mg2+	relative to: high Mg2+ state, higher = stronger signaling	fold induction	13.2

A few entries again (sample 3):
Substitution	normalised enrichment score
PPAKKRLEFGESG [R5K L9F]	0.573
PPAKRRLELGESA [G13A]	-0.314
PPAKRRLALGESG [E8A]	-0.114
PPAKRRAELGESG [L7A]	0.146
PPAKRRLELAESG [G10A]	0.457
PPAKARAELGESG [R5A L7A]	0.178
